{"data": "Measured values gathered from unrelated publications", "note": "Compare with care: the assays were run in different laboratories."}
{"Structure (SMILES)": "CCCCCCCCCCCCCCCC(=O)N(C)[C@H](CO)C(=O)N[C@H](C)C(=O)NCC(=O)N(C)[C@@H]1C(=O)N[C@@H](C)C(=O)N[C@H](C(=O)O)Cc2ccc(O)c(c2)-c2cc1ccc2O[C@@H]1O[C@@H](C)[C@H](O)[C@@H](O)[C@H]1O", "organism": "Streptococcus agalactiae", "system": "COH-1", "MIC": "inactive"}
{"Structure (SMILES)": "O=[N+]([O-])c1c(Br)c(Cl)c2cccnc2c1O", "organism": "bacteria", "setting": "panel of 19 strains, 5 species", "MIC": "2 to 8 µg/mL"}
{"Structure (SMILES)": "CC[C@@H](C)[C@@H](NC(=O)[C@@H](C)NC(=O)[C@@H](CCCCN)NC(=O)[C@@H](CC(C)C)NC(=O)[C@@H](C)NC(=O)[C@H](NC(=O)[C@@H](CCCCN)NC(=O)[C@@H](CC(C)C)NC(=O)[C@H](NC(=O)[C@@H](CCCCN)NC(=O)[C@@H](CCCCN)NC(=O)[C@@H](CCCCN)NC(=O)[C@@H](C)NC(=O)[C@@H](CCCCN)NC(=O)[C@@H](CO)NC(=O)[C@@H](Cc1ccccc1)NC(=O)[C@H](NC(=O)[C@@H](CCCCN)NC(=O)[C@@H](CC(C)C)NC(=O)[C@@H](Cc1ccccc1)NC(=O)[C@@H](CO)NC(=O)[C@@H](CCCCN)NC(=O)[C@@H](Cc1c[nH]c2ccccc12)NC(=O)[C@@H](CCCCN)NC(C)=O)[C@H](C)O)C(C)C)[C@H](C)O)C(=O)N[C@H](CO)C(=O)N[C@H](CCCCN)C(N)=O", "organism": "Acinetobacter baumannii", "system": "884, Mueller-Hinton broth", "setting": "24 h, 37 °C", "MIC": "0.3 µM"}
{"Structure (SMILES)": "Oc1c(Cl)cc(Cl)c2cccnc12", "organism": "Achromobacter xylosoxidans", "assay": "agar dilution", "system": "ATCC 27061", "MIC": "37.4 µM"}
{"Structure (SMILES)": "O=c1c2ccccc2sn1-c1cc(Br)cc(Br)c1", "organism": "Candida albicans", "assay": "growth, broth dilution", "system": "ATCC MYA-1003 (resistant)", "setting": "MIC-0", "MIC": "6.25 µg/mL"}
{"Structure (SMILES)": "C#CCN(CC(=O)O[C@H]1[C@H](C)O[C@@H](O[C@H]2[C@H](N(C)C)[C@@H](O)[C@H](O[C@H]3[C@@H](CC=O)C[C@@H](C)[C@@H](O[C@H]4CC[C@H](N(C)C)[C@@H](C)O4)/C=C/C=C/C[C@@H](C)OC(=O)C[C@@H](O)[C@@H]3OC)O[C@@H]2C)C[C@@]1(C)O)C(=O)c1ccc(C(F)(F)F)cc1", "organism": "Staphylococcus aureus, Staphylococcus epidermidis, Bacillus subtilis", "system": "incl. MRSA", "setting": "range over four strains", "MIC": "4 to 16 µM"}
{"Structure (SMILES)": "Oc1c(Br)ccc2cccnc12", "organism": "Listeria monocytogenes", "assay": "microbial growth, agar dilution", "MIC": "35.7 µM"}
{"Structure (SMILES)": "CCCCCC(=O)O[C@H]1[C@H](C)O[C@@H](O[C@H]2[C@H](N(C)C)[C@@H](O)[C@H](O[C@H]3[C@@H](CC=O)C[C@@H](C)[C@@H](O[C@H]4CC[C@H](N(C)C)[C@@H](C)O4)/C=C/C=C/C[C@@H](C)OC(=O)C[C@@H](O)[C@@H]3OC)O[C@@H]2C)C[C@@]1(C)O", "organism": "Staphylococcus aureus, Staphylococcus epidermidis, Bacillus subtilis", "system": "incl. MRSA", "setting": "range over four strains", "MIC": "2 to 8 µM"}
{"Structure (SMILES)": "CC[C@@H](C)[C@@H](NC(=O)[C@@H](C)NC(=O)[C@@H](CCCCN)NC(=O)[C@@H](CC(C)C)NC(=O)[C@@H](C)NC(=O)[C@H](NC(=O)[C@@H](Cc1c[nH]cn1)NC(=O)[C@@H](CC(C)C)NC(=O)[C@H](NC(=O)[C@H](NC(=O)[C@@H](CCCCN)NC(=O)[C@H](NC(=O)[C@@H](C)NC(=O)[C@@H](CO)NC(=O)[C@@H](CCCCN)NC(=O)[C@@H](Cc1ccccc1)NC(=O)[C@H](NC(=O)[C@@H](CCCCN)NC(=O)[C@@H](CC(C)C)NC(=O)[C@@H](Cc1ccccc1)NC(=O)[C@@H](CO)NC(=O)[C@@H](CCCCN)NC(=O)[C@@H](Cc1c[nH]c2ccccc12)NC(=O)[C@@H](CCCCN)NC(C)=O)[C@H](C)O)C(C)C)[C@H](C)O)C(C)C)[C@H](C)O)C(=O)N[C@H](CO)C(=O)N[C@H](CO)C(N)=O", "organism": "Acinetobacter baumannii", "assay": "broth microdilution", "system": "ATCC 19606", "setting": "24 h, 37 °C", "MIC": "0.7 µM"}
{"Structure (SMILES)": "CC[C@H](C)[C@@H]1NC(=O)[C@@H]([C@@H](C)O)NC(=O)CNC(=O)[C@H](CC(=O)O)NC(=O)CNC(=O)[C@H](CC(=O)O)NC(=O)CNC(=O)[C@H]2CCCCN2C(=O)[C@@H](NC(=O)[C@H](CC(=O)O)NC(=O)/C=C/CCCCCCCCCC(C)C)CNC(=O)[C@@H]2CCCN2C1=O", "organism": "Staphylococcus aureus", "system": "MRSA USA300", "setting": "16 h, 37 °C, added: Ca2+ 10 mM", "MIC": "2 µg/mL"}
{"Structure (SMILES)": "N#Cc1ccc2cccc(O)c2n1", "organism": "Shewanella putrefaciens", "assay": "agar dilution", "system": "ATCC 8071", "MIC": "1500 µM"}
{"Structure (SMILES)": "CC[C@@H](C)[C@@H](NC(=O)[C@@H](C)NC(=O)[C@@H](CCCCN)NC(=O)[C@@H](CC(C)C)NC(=O)[C@@H](CC(C)C)NC(=O)[C@H](NC(=O)[C@@H](CCCCN)NC(=O)[C@@H](CC(C)C)NC(=O)[C@@H](CCCCN)NC(=O)[C@@H](CCCCN)NC(=O)[C@@H](CCCCN)NC(=O)[C@@H](CCCCN)NC(=O)[C@@H](C)NC(=O)[C@@H](CCCCN)NC(=O)[C@@H](CO)NC(=O)[C@@H](Cc1ccccc1)NC(=O)[C@H](NC(=O)[C@@H](CCCCN)NC(=O)[C@@H](CC(C)C)NC(=O)[C@@H](Cc1ccccc1)NC(=O)[C@@H](CO)NC(=O)[C@@H](CCCCN)NC(=O)[C@@H](Cc1c[nH]c2ccccc12)NC(=O)[C@@H](CCCCN)NC(C)=O)[C@H](C)O)[C@H](C)O)C(=O)N[C@H](CO)C(=O)N[C@H](CCCCN)C(N)=O", "organism": "Acinetobacter baumannii", "system": "759, Mueller-Hinton broth", "setting": "24 h, 37 °C", "MIC": "0.6 µM"}
